Measured values of several laboratories.
Protocols differ between the studies behind these lines.
UniProt P10721, sequence (whole entry, unmodified, looked up): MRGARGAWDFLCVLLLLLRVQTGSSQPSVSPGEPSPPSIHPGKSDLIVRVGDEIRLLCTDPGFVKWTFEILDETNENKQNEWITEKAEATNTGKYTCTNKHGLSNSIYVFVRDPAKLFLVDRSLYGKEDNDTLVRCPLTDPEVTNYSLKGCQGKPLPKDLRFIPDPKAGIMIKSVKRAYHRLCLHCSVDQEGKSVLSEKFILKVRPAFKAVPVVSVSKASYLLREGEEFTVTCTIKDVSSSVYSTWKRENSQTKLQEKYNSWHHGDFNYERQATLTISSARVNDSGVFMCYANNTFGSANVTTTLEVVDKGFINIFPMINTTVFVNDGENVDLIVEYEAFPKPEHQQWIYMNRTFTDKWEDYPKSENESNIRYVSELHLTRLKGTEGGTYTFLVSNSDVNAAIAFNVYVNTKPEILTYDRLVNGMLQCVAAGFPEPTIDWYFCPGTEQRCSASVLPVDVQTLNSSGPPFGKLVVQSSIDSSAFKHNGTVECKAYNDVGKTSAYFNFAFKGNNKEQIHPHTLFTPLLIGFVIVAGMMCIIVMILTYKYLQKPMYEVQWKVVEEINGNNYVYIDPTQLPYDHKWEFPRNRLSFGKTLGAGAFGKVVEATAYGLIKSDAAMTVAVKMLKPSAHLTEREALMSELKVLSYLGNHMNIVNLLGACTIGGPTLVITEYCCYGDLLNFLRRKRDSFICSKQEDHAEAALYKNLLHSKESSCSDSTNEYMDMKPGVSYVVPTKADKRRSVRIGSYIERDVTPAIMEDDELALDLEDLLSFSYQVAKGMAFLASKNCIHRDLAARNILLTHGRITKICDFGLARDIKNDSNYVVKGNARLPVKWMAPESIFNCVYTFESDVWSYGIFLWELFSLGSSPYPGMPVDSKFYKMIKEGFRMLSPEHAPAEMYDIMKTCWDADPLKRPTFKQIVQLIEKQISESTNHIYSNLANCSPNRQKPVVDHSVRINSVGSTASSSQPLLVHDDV
UniProt Q9NR20, sequence (whole entry, looked up): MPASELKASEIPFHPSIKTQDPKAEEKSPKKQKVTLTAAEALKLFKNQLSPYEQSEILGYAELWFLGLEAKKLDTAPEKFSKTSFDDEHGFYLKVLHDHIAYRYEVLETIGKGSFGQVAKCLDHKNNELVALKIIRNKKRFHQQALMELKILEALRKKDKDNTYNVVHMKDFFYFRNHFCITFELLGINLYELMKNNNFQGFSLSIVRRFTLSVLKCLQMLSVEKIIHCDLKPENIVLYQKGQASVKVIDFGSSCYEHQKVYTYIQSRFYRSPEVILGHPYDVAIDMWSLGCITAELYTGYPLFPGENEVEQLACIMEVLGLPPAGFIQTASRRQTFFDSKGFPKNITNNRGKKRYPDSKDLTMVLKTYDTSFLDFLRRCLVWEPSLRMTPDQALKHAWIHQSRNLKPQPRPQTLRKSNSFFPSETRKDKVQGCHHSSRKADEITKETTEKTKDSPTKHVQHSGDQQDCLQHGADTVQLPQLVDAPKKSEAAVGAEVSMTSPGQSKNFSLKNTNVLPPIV
UniProt P42679, sequence (whole entry, looked up): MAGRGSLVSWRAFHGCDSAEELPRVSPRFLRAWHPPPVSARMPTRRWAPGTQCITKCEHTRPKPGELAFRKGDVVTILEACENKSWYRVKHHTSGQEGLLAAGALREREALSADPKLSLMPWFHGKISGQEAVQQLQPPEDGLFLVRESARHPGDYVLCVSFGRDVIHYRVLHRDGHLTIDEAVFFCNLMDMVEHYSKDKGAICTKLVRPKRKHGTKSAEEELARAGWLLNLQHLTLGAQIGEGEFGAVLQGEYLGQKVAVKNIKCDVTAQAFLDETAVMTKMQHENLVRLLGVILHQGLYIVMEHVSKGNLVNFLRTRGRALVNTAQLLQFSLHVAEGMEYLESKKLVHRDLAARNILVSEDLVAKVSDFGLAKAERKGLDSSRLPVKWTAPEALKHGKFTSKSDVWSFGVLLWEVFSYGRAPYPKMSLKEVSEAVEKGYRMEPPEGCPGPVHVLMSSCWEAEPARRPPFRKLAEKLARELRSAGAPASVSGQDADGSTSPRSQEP
UniProt Q8IYT8, sequence (whole entry, looked up): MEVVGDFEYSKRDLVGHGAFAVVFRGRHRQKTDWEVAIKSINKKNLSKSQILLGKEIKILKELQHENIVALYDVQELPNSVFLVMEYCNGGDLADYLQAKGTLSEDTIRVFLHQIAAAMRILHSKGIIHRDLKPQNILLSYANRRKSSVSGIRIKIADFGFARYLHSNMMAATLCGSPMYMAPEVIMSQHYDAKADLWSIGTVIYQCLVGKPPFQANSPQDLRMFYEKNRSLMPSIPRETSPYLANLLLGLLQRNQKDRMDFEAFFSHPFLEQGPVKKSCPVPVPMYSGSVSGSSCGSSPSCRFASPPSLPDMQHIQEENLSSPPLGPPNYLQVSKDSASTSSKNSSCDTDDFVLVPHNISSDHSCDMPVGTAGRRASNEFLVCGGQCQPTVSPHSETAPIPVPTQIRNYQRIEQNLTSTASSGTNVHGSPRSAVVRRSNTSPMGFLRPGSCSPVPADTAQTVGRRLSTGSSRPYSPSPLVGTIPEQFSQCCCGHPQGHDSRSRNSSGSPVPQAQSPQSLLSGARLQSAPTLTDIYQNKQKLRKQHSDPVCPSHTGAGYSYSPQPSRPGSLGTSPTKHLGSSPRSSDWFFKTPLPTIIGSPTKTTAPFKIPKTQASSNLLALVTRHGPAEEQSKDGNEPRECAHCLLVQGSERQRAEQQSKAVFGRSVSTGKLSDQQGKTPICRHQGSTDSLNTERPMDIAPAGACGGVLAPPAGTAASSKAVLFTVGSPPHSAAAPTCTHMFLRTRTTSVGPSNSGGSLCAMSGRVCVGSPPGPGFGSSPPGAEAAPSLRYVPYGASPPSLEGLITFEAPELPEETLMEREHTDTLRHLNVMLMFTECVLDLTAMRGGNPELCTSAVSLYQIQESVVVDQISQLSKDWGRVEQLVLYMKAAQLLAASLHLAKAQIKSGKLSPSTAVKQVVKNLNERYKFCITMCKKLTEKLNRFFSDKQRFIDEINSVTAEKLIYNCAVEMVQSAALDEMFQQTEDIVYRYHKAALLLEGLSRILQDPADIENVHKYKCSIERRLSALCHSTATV
UniProt Q9H2G2, sequence (whole entry, looked up): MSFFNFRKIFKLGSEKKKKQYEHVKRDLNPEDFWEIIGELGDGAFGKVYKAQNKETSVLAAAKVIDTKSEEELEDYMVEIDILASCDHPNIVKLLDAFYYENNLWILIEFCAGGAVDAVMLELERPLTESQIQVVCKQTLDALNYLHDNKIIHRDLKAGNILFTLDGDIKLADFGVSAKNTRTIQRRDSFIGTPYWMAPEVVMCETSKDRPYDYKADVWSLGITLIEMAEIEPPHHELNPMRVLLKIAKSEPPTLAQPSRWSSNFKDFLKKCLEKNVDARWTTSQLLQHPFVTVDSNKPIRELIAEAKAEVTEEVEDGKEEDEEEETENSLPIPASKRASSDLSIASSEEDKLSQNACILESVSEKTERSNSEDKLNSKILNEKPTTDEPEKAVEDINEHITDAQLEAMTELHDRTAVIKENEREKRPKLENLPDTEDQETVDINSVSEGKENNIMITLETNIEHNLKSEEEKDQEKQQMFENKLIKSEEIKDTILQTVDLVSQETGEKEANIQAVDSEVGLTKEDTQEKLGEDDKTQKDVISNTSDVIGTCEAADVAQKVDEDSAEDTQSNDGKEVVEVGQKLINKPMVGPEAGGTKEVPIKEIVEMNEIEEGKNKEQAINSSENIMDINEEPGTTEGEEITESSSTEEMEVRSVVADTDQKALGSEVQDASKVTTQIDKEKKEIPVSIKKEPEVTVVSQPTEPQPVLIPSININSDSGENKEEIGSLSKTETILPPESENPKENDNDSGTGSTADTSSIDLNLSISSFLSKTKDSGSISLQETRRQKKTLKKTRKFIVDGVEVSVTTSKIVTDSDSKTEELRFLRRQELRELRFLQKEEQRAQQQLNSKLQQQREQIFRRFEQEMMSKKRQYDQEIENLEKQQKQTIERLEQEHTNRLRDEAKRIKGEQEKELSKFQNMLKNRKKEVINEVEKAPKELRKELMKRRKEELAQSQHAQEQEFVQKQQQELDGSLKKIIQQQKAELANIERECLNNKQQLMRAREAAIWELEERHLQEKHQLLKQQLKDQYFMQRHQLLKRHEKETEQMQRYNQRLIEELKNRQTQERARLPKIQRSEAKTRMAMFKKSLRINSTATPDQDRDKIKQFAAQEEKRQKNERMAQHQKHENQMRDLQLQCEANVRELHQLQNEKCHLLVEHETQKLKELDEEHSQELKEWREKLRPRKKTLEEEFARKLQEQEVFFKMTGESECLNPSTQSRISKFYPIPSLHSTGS
UniProt Q8NI60, sequence (whole entry, looked up): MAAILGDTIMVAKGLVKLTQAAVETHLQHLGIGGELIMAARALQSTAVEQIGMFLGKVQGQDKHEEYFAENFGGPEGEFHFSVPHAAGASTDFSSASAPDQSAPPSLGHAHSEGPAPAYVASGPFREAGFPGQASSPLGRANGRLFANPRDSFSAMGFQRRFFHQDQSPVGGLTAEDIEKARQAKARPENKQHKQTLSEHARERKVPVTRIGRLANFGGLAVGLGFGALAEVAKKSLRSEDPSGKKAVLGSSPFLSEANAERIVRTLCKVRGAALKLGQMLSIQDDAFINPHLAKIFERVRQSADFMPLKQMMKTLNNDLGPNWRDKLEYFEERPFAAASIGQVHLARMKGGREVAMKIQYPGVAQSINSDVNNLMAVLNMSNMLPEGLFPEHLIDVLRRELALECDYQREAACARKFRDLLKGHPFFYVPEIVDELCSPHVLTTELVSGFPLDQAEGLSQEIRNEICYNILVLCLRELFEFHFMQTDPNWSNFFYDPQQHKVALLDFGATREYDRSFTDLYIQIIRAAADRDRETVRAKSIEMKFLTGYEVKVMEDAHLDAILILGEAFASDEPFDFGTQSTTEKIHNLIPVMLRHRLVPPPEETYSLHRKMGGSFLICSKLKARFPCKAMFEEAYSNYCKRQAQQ

| Structure (SMILES) | tested on | assay | conditions | endpoint | result |
| --- | --- | --- | --- | --- | --- |
| COc1ccnn2ncc(-c3ccnc(N(C)C)n3)c12 | CRK2 (Plasmodium falciparum, UniProt P61075) | binding | 1 µM | remaining binding | 92% |
| C1=C/COCc2cc(ccc2OCCN2CCCC2)Nc2nccc(n2)-c2cccc(c2)COC/1 | PNCK (Homo sapiens, UniProt Q6P2M8) | binding | 0.1 µM | remaining binding | 34% |
| CCCCC(=O)Nc1ccc(-c2ccc3ncn(CCC)c(=O)c3c2)cn1 | CSNK2A2 (Homo sapiens, UniProt P19784) | binding, competition with immobilised ligand | 0.5 µM | remaining binding | 100% |
| Nc1ccn([C@@H]2O[C@H](CO)[C@@H](O)C2(F)F)c(=O)n1 | MCF7 | cell growth or viability, MTT | 0.15625 µg/mL, 48 h | viability | 90% |
| Nc1ncnc2occ(-c3ccc(NC(=O)Nc4cc(C(F)(F)F)ccc4F)cc3)c12 | KIT (Homo sapiens, UniProt P10721, D816H) | cell-free assay, inhibitor | 20 µM | remaining signal | 2.8% |
| COc1ccc2oc(-c3ccc4nc(N)oc4c3)c/c(=N\c3ccccc3NC(=O)CCN)c2c1 | MATK (Homo sapiens, UniProt P42679) | binding | 1 µM | remaining binding | 136% |
| C=CC(=O)N1CCC(COCC(=O)N2CCN(c3nc(-c4cnc(N)nc4C(F)F)nc(N4CCOC[C@@H]4C)n3)CC2)CC1 | COQ8A (Homo sapiens, UniProt Q8NI60) | binding, competition with immobilised ligand | 1 µM | remaining binding | 96% |
| CNc1ncc2c(/C=C/C(=O)N3CCC(OC)CC3)nn(Cc3cccc(C(F)(F)F)c3)c2n1 | DYRK4 (Homo sapiens, UniProt Q9NR20) | enzyme activity, inhibitor, radiometric | 1 µM | remaining activity | 112% |
| COc1cc(-c2cncc3c2CN(C)Cc2cc(N4CCNCC4)ccc2-3)cc(OC)c1OC | SLK (Homo sapiens, UniProt Q9H2G2) | enzyme activity, inhibitor | 1 µM | remaining activity | 106% |
| Cc1cc([C@@H](C)Nc2ccccc2C(=O)O)c2nc(N3CCC(F)(F)CC3)c(C#N)c(=O)n2c1 | ULK2 (Homo sapiens, UniProt Q8IYT8) | binding, competition with immobilised ligand | 10 µM | remaining binding | 55% |
| FC(F)(F)Oc1cccc(-c2cnc3ccc(-c4ccncc4)nn23)c1 | TLK1 (Homo sapiens, UniProt Q9UKI8) | binding, competition with immobilised ligand | 5 µM | remaining binding | 87% |
| Cc1cc(S(=O)(=O)N[C@H]2CC[C@H](CN3CCN(c4ccc(C5CCC(=O)NC5=O)cc4F)CC3)CC2)ccc1Nc1ncc(C(F)(F)F)c(N2CCC[C@](C)(O)C2)n1 (stereo partly drawn) | STK16 (Homo sapiens, UniProt O75716) | binding, competition with immobilised ligand | 1 µM | remaining binding | 59% |

A few entries again:
| Structure (SMILES) | tested on | assay | conditions | endpoint | result |
| --- | --- | --- | --- | --- | --- |
| Nc1ccn([C@@H]2O[C@H](CO)[C@@H](O)C2(F)F)c(=O)n1 | MCF7 | cell growth or viability, MTT | 0.15625 µg/mL, 48 h | viability | 90% |
